{"data": "Published values gathered from unrelated publications", "note": "± marks the error that the study gave."}
{"SMILES": "N=C(N)NCCC[C@H](NC(=O)[C@@H]1CCCN1C(=O)[C@H](Cc1ccccc1)NC(=O)[C@@H]1CCCN1C(=O)[C@H](Cc1c[nH]cn1)NC(=O)[C@@H](N)Cc1ccccc1)C(=O)O", "test": "LC-MS/MS", "test system": "Sprague Dawley rat plasma", "setting": "500 ng/mL, 10 min, room temperature", "remaining compound [%]": "35 ± 9.18"}
{"SMILES": "CO[C@@H](C(N)=O)[C@H](NC(=O)c1ccc(NC(=O)c2ccc([N+](=O)[O-])cc2)cc1)C(=O)Nc1ccc(C(=O)Nc2ccc(C(=O)Nc3ccc(C(=O)O)cc3)c(O)c2OC(C)C)cc1", "test system": "mouse plasma", "setting": "4 h", "remaining compound [%]": "> 90"}
{"SMILES": "CC1(C)C(=CC=C(C=CC2=[N+](CCC[N+](C)(C)C)c3ccc(S(=O)(=O)[O-])cc3C2(C)C)CCC(=O)[O-])N(CCC[N+](C)(C)C)c2ccc(S(=O)(=O)[O-])cc21", "test system": "100% serum", "setting": "24 h, pH 7.4, 37 °C", "remaining compound [%]": 99}
{"SMILES": "[Br-].c1ccc(-n2nc(-c3ccccn3)n[n+]2-c2ccccc2)cc1", "test": "HPLC", "test system": "fetal bovine serum", "setting": "24 h", "remaining compound [%]": 100}
{"SMILES": "CSCC(NC(=O)c1cc(Cl)ccc1Cl)C(=O)NC(CC(C)C)B(O)O (stereo not drawn)", "test system": "human liver microsomes", "setting": "3 µM, 60 min, pH 7.4, added: NADPH", "remaining compound [%]": "50 ± 1.58"}
{"SMILES": "C[C@H](CCC(=O)NCCC(c1ccccc1)c1ccccc1)[C@H]1CC[C@H]2[C@@H]3CC[C@@H]4CC(=O)CC[C@]4(C)[C@H]3CC[C@]12C", "test system": "human plasma", "setting": "2 h", "remaining compound [%]": 97.4}
{"SMILES": "CC1=C(C=O)C(C)(C)CC=C1", "test system": "rat plasma", "setting": "500 µM, 4 h", "remaining compound [%]": 22}
{"SMILES": "CCCCCCCCCCCCCCCC(=O)OC[C@H]1O[C@@H](n2cc(F)c(N)nc2=O)CS1", "test system": "dog plasma", "setting": "1 µM, 90 min, 37 °C", "how to read": "reference: 0 min", "remaining compound [%]": 11}
{"SMILES": "CCCC(CCC)NC(=O)c1ccc(OC)c(O)c1", "test system": "rat liver microsomes", "setting": "1.0 µM, 10 min", "remaining compound [%]": 85}
{"SMILES": "NS(=O)(=O)Cc1ccccc1Nc1c(Cl)cccc1Cl", "test": "glucuronidation", "test system": "human liver microsomes", "setting": "30 min, added: UDPGA", "remaining compound [%]": "108 ± 1.9"}
{"SMILES": "CC12CC3(C)CC(C)(C1)CC(NC(=O)NC1CCC(Oc4ccc(C(=O)O)cc4)CC1)(C2)C3 (stereo not drawn)", "test system": "human liver microsomes", "setting": "1 µM, 30 min, 37 °C, 1 mg/mL microsomes, added: NADPH", "remaining compound [%]": "0.7 ± 0.2"}
{"SMILES": "Cc1ccc(OCC(=O)N(Cc2cccs2)c2ccn[nH]2)cc1", "test system": "rabbit, liver microsomes", "setting": "10 µM, 0 min, at NADPH addition", "remaining compound [%]": "< 15"}
{"SMILES": "Oc1ccccc1-c1nn(-c2ccccc2)[n+](-c2ccccc2)n1.[Br-]", "test": "HPLC", "test system": "fetal bovine serum", "setting": "24 h", "remaining compound [%]": 93}
{"SMILES": "[Ru+2].c1ccc(-c2cccc(-c3ccccn3)n2)nc1.c1ccc(-c2ccccn2)nc1.c1cnccn1", "test system": "water", "setting": "24 h, 37 °C", "remaining compound [%]": 100}
{"SMILES": "CCC1CC2C(C)=CC3C(=O)CCCC3C=CC(C)=CC2C(=O)O1 (stereo not drawn)", "test system": "human plasma", "setting": "10 µM, 2 h, 37 °C", "remaining compound [%]": 102}
{"SMILES": "CC12CC3CC(C)(C1)CC(NC(=O)NC1CCC(Oc4ccc(C(=O)O)cc4)CC1)(C3)C2 (stereo not drawn)", "test system": "human liver microsomes", "setting": "1 µM, 30 min, 37 °C, 1 mg/mL microsomes, added: without NADPH", "remaining compound [%]": "100 ± 3"}
{"SMILES": "C[N+]1(CC(=O)OC2CCCCCCCCCCC2)CCCCC1", "test system": "mouse liver microsomes", "setting": "60 min, without NADPH", "remaining compound [%]": 91}
{"SMILES": "CC(C)(CN)S[Se]Cc1ccc(-c2cccc(C(O)c3ccc(Cl)c(Cl)c3)c2)cc1 (stereo not drawn)", "test system": "rat liver microsomes without NADPH", "setting": "1 h", "remaining compound [%]": 82}
{"SMILES": "O=c1c2ccccc2[se]n1CCCCCCn1[se]c2ccccc2c1=O", "test system": "mouse blood", "setting": "24.4 µM, 2 h, 37 °C", "remaining compound [%]": 64}
{"SMILES": "Clc1cccc(Cl)c1Nc1ccccc1Cc1nnn[nH]1", "test": "glucuronidation", "test system": "human liver microsomes", "setting": "30 min, added: UDPGA", "remaining compound [%]": "100 ± 8.4"}
{"SMILES": "CC(=O)N[C@@H](CC(C)C)C(=O)N[C@H](C(=O)N[C@@H](Cc1ccccc1)C(=O)N[C@]1(C)CCCCCCC=CCCC[C@@](C)(C(=O)N[C@@H](CO)C(=O)N[C@@H](C)C(=O)N[C@@H](C)C(N)=O)NC(=O)[C@H](CC2CCC2)NC(=O)[C@H](CCC(N)=O)NC(=O)[C@H](C)NC(=O)[C@H](Cc2c[nH]c3ccccc23)NC(=O)[C@H](Cc2ccc(O)cc2)NC(=O)[C@H](CCC(=O)O)NC1=O)[C@@H](C)O", "test system": "HCT-116 whole cell homogenate", "setting": "1 µM, 4 h", "remaining compound [%]": "~90"}
{"SMILES": "CCCC(CCC)NC(=O)c1ccc(O)c(OC)c1", "test system": "rat liver microsomes", "setting": "1.0 µM, 10 min", "remaining compound [%]": 95}
{"SMILES": "COC(=O)c1ccc2c(c1)NC(=O)/C2=C(\\Nc1ccc2c(c1)CCN2C(=O)CN1CCOCC1)c1ccccc1", "test system": "cynomolgus monkey plasma", "setting": "1 µM, 4 h, 37 °C", "remaining compound [%]": 104}
{"SMILES": "CCCn1cnc(C[C@H](NC(=O)c2cnccn2)C(=O)N2CCC[C@H]2C(N)=O)c1", "test": "HPLC", "test system": "rat plasma", "setting": "500 µM, 18 h, 37 °C", "remaining compound [%]": 60}
{"SMILES": "CCCCCCCCCCCCCCCC(=O)N[C@@H](CCCCN)C(=O)N[C@H](C(=O)N[C@H](C(=O)N[C@@H](CCCCN)C(=O)N[C@@H](CO)C(=O)O)[C@@H](C)O)[C@@H](C)O", "test": "LC-MS/MS", "test system": "mouse dermal skin extract", "setting": "40 µg/mL, 120 min, pH 7.4, 37 °C", "remaining compound [%]": 9.7}
{"SMILES": "O=C(O)C(F)(F)c1ccccc1Nc1c(Cl)cccc1Cl", "test system": "human liver microsomes", "setting": "30 min, added: NADPH", "remaining compound [%]": "28 ± 5"}
{"SMILES": "O=C(NCCCCc1ccccc1)n1c(=O)oc2cc(-c3ccc(F)cc3)ccc21", "test system": "mouse liver microsomes", "setting": "5 µM, 1 h, pH 7.4", "remaining compound [%]": 89}
{"SMILES": "CC(=O)OC1C(=O)C2(C)C(O)CC3OCC3(OC(C)=O)C2C(OC(=O)c2ccccc2)C2(O)CC(OC(=O)C(OC(=O)OC3C=CCCC(C)(C(=O)NCC(=O)O)CC3)C(NC(=O)c3ccccc3)c3ccccc3)C(C)=C1C2(C)C (stereo not drawn)", "test system": "mouse plasma", "setting": "1 µM, time not given, 37 °C", "remaining compound [%]": 96.5}
{"SMILES": "CC[C@H](C)[C@H](NC(=O)[C@H](Cc1c[nH]c2ccccc12)NC(=O)[C@H](CCCNC(=O)c1ccc2c(c1)C(=O)OC21c2ccc(O)cc2Oc2cc(O)ccc21)NC(=O)CNC(=O)[C@H]1CCCN1C(=O)[C@@H](NC(=O)[C@H](CCCNC(=N)N)NC(=O)[C@@H](NC(=O)[C@H](Cc1c[nH]c2ccccc12)NC(=O)[C@H](CCCNC(=N)N)NC(C)=O)C(C)C)C(C)C)C(=O)N[C@@H](CCCNC(=N)N)C(=O)N[C@@H](CCC(N)=O)C(N)=O", "test system": "HeLa cell lysate", "setting": "30 µM, 180 min, pH 7.6, 37 °C", "how to read": "reference: time zero", "remaining compound [%]": "~80"}
{"SMILES": "COc1cc(-c2cnc3nc2NCCCNS(=O)(=O)c2cccc(c2)N3)ccc1F", "test system": "Sprague-Dawley rat liver microsomes", "setting": "10 µM, 60 min, pH 7.4, 37 °C, added: NADPH", "remaining compound [%]": 90}
{"SMILES": "C=C1C[C@@]23CC[C@H]4[C@@](C)(CCC[C@@]4(C)C(=O)O[C@@H]4O[C@H](CO)[C@@H](O)[C@H](O)[C@H]4O)[C@@H]2CC[C@]1(O[C@@H]1O[C@H](CO[C@H]2O[C@H](CO)[C@@H](O)[C@H](O)[C@H]2O)[C@@H](O)[C@H](O)[C@H]1O[C@@H]1O[C@H](CO)[C@@H](O)[C@H](O)[C@H]1O)C3", "test": "HPLC", "test system": "Britton-Robinson buffer", "setting": "0.05 % w/v, time not given, pH 2", "how to read": "reference: initial", "remaining compound [%]": "94.1 ± 0.98"}
{"SMILES": "CCc1c2c(nc3ccc(O)cc13)-c1cc3c(c(=O)n1C2)COC(=O)[C@@]3(CC)OC(=O)[C@H](N)C(C)C", "test system": "MCF7 cell lysate", "setting": "5 µM, 120 min, 37 °C", "remaining compound [%]": 40}
{"SMILES": "Cc1cc(N)nc(C[C@@H]2CNC[C@@H]2OCCNCC(F)(F)c2cccc(F)c2)c1", "test": "in vitro metabolic stability", "setting": "60 min, added: NADPH", "remaining compound [%]": 69}
{"SMILES": "CC1=C(C2=C(C)C(=O)c3c(cc(O)c(O)c3Cc3ccccc3)C2=O)C(=O)c2cc(O)c(O)c(Cc3ccccc3)c2C1=O (racemic)", "test system": "rat liver microsomes", "setting": "4 µM, 1 h, pH 7.4", "remaining compound [%]": "81.7 ± 5.4"}
{"SMILES": "COc1cc(NC(C)=O)c2c(c1O)-c1c(OC)c(OC)cc3c1C(C2)N(C)CC3 (stereo not drawn)", "test system": "rat lung homogenate", "setting": "5 µg/mL, 40 d, -20 °C, long-term storage", "remaining compound [%]": "90.9 ± 1.4"}
{"SMILES": "CONC(=O)[C@H]1[C@@H](O)[C@@]2(O)c3c(cc(OC)nc3OC)O[C@@]2(c2ccc(C#N)cc2)[C@@H]1c1ccccc1", "test system": "simulated gastric fluid with pepsin", "setting": "50 µM, 1 h, pH 1.2, 37 °C", "remaining compound [%]": "94.5 ± 0.7"}
{"SMILES": "COC[C@H](NC(=O)[C@H](CCc1ccccc1)NC(=O)CN1CCOCC1)C(=O)N[C@H](/C=C/S(C)(=O)=O)CC(C)C", "test system": "human and mouse plasma", "setting": "6 h", "remaining compound [%]": "> 85"}
{"SMILES": "Fc1cc(Cl)c(Nc2ccccc2Cc2nnn[nH]2)c(Cl)c1", "test": "glucuronidation", "test system": "human liver microsomes", "setting": "30 min, added: UDPGA", "remaining compound [%]": "107 ± 2.2"}
{"SMILES": "CS(=O)(=O)c1ccc(-c2nnc(/C=C/c3nnc(-c4ccc(C#N)cc4)o3)n2-c2ccccc2Cl)nc1", "test system": "mouse liver microsomes", "setting": "concentration not given, time not given", "remaining compound [%]": 96}
{"note": "Some of these lines once more:"}
{"SMILES": "CO[C@@H](C(N)=O)[C@H](NC(=O)c1ccc(NC(=O)c2ccc([N+](=O)[O-])cc2)cc1)C(=O)Nc1ccc(C(=O)Nc2ccc(C(=O)Nc3ccc(C(=O)O)cc3)c(O)c2OC(C)C)cc1", "test system": "mouse plasma", "setting": "4 h", "remaining compound [%]": "> 90"}
{"SMILES": "CC1(C)C(=CC=C(C=CC2=[N+](CCC[N+](C)(C)C)c3ccc(S(=O)(=O)[O-])cc3C2(C)C)CCC(=O)[O-])N(CCC[N+](C)(C)C)c2ccc(S(=O)(=O)[O-])cc21", "test system": "100% serum", "setting": "24 h, pH 7.4, 37 °C", "remaining compound [%]": 99}
{"SMILES": "[Br-].c1ccc(-n2nc(-c3ccccn3)n[n+]2-c2ccccc2)cc1", "test": "HPLC", "test system": "fetal bovine serum", "setting": "24 h", "remaining compound [%]": 100}
{"SMILES": "CSCC(NC(=O)c1cc(Cl)ccc1Cl)C(=O)NC(CC(C)C)B(O)O (stereo not drawn)", "test system": "human liver microsomes", "setting": "3 µM, 60 min, pH 7.4, added: NADPH", "remaining compound [%]": "50 ± 1.58"}
{"SMILES": "C[C@H](CCC(=O)NCCC(c1ccccc1)c1ccccc1)[C@H]1CC[C@H]2[C@@H]3CC[C@@H]4CC(=O)CC[C@]4(C)[C@H]3CC[C@]12C", "test system": "human plasma", "setting": "2 h", "remaining compound [%]": 97.4}
